Assay results of several laboratories.
Lines come from different studies, so protocols differ. Values joined by “and” are separate records of one study, mostly repeats; a detail may differ. Numbers after ± are the reported error.
PLEKHA4 PH domain: Pleckstrin homology domain-containing family A member 4, PH domain (PLEKHA4, Homo sapiens, UniProt Q9H4M7)
Chain of UniProt Q9H4M7 (whole entry, looked up): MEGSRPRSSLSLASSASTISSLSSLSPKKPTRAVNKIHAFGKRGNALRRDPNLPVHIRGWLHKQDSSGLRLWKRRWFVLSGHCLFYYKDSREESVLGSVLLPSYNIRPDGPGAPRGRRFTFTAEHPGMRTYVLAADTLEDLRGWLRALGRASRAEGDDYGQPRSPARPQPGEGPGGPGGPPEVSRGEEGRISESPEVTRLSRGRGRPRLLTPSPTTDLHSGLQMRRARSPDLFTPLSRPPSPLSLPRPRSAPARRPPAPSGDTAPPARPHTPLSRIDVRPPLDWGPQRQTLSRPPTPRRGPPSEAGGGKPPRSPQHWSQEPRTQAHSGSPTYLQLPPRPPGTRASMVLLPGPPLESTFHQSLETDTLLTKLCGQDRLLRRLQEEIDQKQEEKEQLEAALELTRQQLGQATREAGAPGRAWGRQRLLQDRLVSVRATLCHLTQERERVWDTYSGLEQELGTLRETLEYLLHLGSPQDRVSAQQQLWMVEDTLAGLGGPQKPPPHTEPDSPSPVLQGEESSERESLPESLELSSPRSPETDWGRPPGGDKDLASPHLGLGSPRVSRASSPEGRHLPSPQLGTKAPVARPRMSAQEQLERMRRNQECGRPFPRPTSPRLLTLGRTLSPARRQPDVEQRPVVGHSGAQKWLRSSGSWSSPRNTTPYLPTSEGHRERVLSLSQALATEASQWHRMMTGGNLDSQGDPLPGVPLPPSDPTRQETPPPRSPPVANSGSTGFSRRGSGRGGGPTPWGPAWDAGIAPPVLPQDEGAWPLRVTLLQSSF
Chain of UniProt P28566 (whole entry, looked up): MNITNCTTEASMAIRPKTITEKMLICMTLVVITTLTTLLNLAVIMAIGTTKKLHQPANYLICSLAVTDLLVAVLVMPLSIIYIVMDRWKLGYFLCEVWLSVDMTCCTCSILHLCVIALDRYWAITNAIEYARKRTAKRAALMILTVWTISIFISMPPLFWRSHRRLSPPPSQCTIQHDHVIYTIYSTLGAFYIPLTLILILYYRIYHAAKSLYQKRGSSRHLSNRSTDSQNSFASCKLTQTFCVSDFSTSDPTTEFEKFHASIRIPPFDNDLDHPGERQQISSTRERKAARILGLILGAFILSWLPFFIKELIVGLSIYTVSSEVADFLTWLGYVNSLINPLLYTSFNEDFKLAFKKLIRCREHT
Chain of UniProt P16257 (whole entry, looked up): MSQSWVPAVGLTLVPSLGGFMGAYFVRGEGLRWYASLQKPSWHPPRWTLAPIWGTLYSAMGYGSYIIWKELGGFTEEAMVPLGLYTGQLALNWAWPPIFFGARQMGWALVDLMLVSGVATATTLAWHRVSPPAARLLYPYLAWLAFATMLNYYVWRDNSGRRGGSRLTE
Chain of UniProt Q15391 (whole entry, unmodified, looked up): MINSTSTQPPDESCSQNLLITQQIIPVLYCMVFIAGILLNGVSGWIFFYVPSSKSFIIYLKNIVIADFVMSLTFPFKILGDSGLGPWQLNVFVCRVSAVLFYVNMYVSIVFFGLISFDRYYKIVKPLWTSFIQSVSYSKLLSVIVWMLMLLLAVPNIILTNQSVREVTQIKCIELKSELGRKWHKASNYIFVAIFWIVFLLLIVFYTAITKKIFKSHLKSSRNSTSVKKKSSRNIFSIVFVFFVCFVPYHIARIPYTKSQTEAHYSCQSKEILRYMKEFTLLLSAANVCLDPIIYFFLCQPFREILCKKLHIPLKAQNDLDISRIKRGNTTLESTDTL
Chain of UniProt Q6IQ20 (whole entry, looked up): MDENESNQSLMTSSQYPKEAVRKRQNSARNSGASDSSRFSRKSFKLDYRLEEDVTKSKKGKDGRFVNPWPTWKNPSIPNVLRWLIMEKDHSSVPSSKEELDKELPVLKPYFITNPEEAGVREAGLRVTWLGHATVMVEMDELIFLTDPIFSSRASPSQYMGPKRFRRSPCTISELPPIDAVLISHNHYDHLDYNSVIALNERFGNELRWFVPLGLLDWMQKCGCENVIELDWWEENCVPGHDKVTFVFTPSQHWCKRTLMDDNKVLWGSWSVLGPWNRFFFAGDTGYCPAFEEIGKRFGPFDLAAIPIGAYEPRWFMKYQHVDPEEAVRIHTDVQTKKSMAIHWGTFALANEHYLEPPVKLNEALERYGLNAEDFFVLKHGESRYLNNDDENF
Chain of UniProt Q14164 (whole entry, looked up): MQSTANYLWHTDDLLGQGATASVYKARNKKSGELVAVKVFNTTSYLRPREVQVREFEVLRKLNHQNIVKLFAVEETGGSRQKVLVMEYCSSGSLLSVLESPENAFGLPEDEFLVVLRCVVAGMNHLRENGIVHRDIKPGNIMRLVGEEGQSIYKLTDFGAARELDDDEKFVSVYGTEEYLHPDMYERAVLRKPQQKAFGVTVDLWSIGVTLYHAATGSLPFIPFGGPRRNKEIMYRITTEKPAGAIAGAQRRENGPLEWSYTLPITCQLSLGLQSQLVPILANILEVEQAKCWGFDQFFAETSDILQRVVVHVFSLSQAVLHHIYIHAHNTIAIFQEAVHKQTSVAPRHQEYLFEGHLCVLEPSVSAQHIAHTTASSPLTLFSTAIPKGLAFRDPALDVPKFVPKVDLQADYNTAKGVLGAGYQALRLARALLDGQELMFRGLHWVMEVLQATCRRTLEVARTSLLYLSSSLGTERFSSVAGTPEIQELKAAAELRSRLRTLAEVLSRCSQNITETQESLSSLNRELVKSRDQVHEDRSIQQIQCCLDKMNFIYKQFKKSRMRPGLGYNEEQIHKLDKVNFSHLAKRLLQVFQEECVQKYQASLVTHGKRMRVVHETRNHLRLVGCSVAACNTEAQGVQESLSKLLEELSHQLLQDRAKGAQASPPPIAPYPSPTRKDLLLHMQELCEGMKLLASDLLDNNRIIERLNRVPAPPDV
Chain of UniProt O60674 (whole entry, unmodified, looked up): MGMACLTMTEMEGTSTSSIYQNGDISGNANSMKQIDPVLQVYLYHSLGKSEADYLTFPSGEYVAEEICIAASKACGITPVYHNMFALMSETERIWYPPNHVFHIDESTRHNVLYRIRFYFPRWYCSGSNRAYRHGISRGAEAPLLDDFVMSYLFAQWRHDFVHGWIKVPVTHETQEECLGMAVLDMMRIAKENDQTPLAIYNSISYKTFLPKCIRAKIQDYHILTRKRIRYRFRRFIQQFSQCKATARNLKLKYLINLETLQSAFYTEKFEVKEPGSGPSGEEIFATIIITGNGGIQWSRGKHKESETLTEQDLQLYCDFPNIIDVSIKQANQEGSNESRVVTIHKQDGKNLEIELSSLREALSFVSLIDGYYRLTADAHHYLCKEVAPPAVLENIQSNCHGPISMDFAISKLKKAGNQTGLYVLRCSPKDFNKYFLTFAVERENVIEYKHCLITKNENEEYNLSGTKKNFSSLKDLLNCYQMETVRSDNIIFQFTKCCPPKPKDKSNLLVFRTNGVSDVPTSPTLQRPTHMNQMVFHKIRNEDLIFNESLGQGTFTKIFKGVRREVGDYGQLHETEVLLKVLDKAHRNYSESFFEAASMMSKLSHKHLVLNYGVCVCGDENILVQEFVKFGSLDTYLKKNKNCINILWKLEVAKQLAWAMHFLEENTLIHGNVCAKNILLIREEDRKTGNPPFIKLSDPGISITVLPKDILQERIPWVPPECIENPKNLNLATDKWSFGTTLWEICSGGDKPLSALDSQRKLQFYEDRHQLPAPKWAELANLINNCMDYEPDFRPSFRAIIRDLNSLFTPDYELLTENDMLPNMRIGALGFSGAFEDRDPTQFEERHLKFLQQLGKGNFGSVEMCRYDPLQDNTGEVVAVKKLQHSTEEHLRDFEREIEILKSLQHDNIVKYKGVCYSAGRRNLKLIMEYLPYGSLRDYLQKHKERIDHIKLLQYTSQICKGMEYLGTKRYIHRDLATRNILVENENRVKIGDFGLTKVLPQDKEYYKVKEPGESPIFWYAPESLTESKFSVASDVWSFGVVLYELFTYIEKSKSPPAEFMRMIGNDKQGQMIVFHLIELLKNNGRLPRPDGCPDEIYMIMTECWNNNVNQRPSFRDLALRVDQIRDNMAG
Chain of UniProt P07339 (whole entry, looked up): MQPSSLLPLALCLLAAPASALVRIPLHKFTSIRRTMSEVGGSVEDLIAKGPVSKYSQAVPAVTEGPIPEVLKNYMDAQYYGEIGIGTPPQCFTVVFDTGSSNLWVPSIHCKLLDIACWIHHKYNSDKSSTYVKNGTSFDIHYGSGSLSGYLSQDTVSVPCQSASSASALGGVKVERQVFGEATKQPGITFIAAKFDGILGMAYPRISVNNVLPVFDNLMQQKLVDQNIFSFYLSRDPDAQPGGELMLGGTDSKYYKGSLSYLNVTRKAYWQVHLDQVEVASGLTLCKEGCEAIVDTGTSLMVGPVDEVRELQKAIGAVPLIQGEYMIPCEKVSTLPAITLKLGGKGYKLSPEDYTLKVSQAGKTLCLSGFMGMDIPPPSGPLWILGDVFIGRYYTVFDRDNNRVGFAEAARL

| Compound | target or system | assay | system | conditions | how to read | quantity | value |
| --- | --- | --- | --- | --- | --- | --- | --- |
| CC(=O)N[C@H]1[C@H](O[C@H]2[C@H](O)[C@@H](NC(C)=O)[C@H](O[C@H]3[C@H](O)[C@@H](NC(C)=O)[C@H](O[C@H]4[C@H](O)[C@@H](NC(C)=O)C(O)O[C@@H]4CO)O[C@@H]3CO)O[C@@H]2CO)O[C@H](CO)[C@@H](O[C@@H]2O[C@H](CO)[C@@H](O[C@@H]3O[C@H](CO)[C@@H](O[C@@H]4O[C@H](CO)[C@@H](O[C@@H]5O[C@H](CO)[C@@H](O)[C@H](O)[C@H]5NC(C)=O)[C@H](O)[C@H]4NC(C)=O)[C@H](O)[C@H]3NC(C)=O)[C@H](O)[C@H]2NC(C)=O)[C@@H]1O (stereo partly drawn) | LysM receptor-like kinase (Brachypodium distachyon, UniProt A0A0Q3FRN3) | LCO binding, radioligand competition binding | membrane fractions | – | – | Ki | 2.5 nM and 16.1 nM and 3.9 nM |
| CN1CCN2c3ccccc3Cc3ccccc3C2C1 (stereo not drawn) | 5-hydroxytryptamine receptor 1E (HTR1E, Homo sapiens, UniProt P28566) | binding | – | – | – | Ki | 26.1 nM |
| CC(C)C[C@H](NC(=O)C[C@H](O)[C@H](CC(C)C)NC(=O)[C@H](Cc1c[nH]cn1)NC(=O)CNC(=O)[C@@H](NC(=O)[C@H](C)NC(=O)[C@H](Cc1c[nH]c2ccccc12)NC(=O)[C@H](CCC(N)=O)NC(=O)[C@@H](Cc1ccccc1)NC(=O)COCCOCCNC(=O)CCC(C(=O)O)N1CCN(CC(=O)O)CCN(CC(=O)O)CCN(CC(=O)O)CC1)C(C)C)C(N)=O (stereo partly drawn) [lutetium-177 labelled] | – | – | female BALB/c nu/nu mice, liver | intravenous, 50 pmol, 24 h | – | tissue uptake | 0.054 ± 0.013 %ID/g |
| Cn1cc(-c2ccc(-c3cncc(Cl)c3N3CCC4(CCNC4=O)CC3)cc2)cn1 | COLO 205 | gene expression, microarray, measured: ARHGDIG mRNA | – | concentration not given, 6 h | baseline: untreated cells | log2 fold change | 3.89 |
| COc1cc(O)c2c(c1)C(=O)c1cc(C)cc(O)c1C2=O | HK-2 co-cultured with HepaRG | MTT | – | 33.33 µM, 48 h | baseline: untreated control | viability | 97.7 ± 3.82% |
| O=c1ccn([C@@H]2O[C@H](COP(=O)(O)OP(=O)(O)O[C@H]3O[C@H](CO)[C@@H](O)[C@H](O)[C@H]3O)[C@@H](O)[C@H]2O)c(=S)[nH]1 | P2Y purinoceptor 14 (P2RY14, Homo sapiens, UniProt Q15391, Q260A) | – | – | – | – | Ki | > 3000 nM |
| Oc1c(Cl)cc(Cl)c(Cl)c1Cc1c(O)c(Cl)cc(Cl)c1Cl | N-acyl-phosphatidylethanolamine-hydrolyzing phospholipase D (Homo sapiens, UniProt Q6IQ20) | – | – | – | – | Ki | 4270 nM |
| CCOc1cccc(C(=O)CC(SCc2ccc(Cl)cc2)C(=O)O)c1 (stereo not drawn) | PLEKHA4 PH domain | PLEKHA4 PI(4,5)P2 binding, fluorescence polarization | – | together with: BODIPY-PI(4,5)P2 tracer | – | Ki | 38900 ± 1900 nM |
| CCOC(=O)C12CC1C(n1ccc3c(NCCCc4ccccc4)nc(C#Cc4ccc(Cl)s4)nc31)C(O)C2O (stereo not drawn) | Translocator protein (Tspo, Rattus norvegicus, UniProt P16257) | binding | – | PDSP off-target screen | – | Ki | 280 nM |
| CCOc1ccc(C(=O)CC(SCc2ccccc2Br)C(=O)O)cc1 (stereo not drawn) | PLEKHA4 PH domain | PLEKHA4 PI(4,5)P2 binding, fluorescence polarization | – | together with: BODIPY-PI(4,5)P2 tracer | – | Ki | 50400 ± 9600 nM |
| COc1cc2c(c(OC)c1OC)-c1c(cc3c(c1OC)OCO3)CC(C)C(C)C2 (stereo not drawn) | CYP3A, rat | poziotinib metabolism to M1, inhibitor | rat liver microsomes | together with: poziotinib | – | Ki | 2610 nM |
| CC#Cc1cncc(-c2ccc3c(c2)[C@@]2(N=C(C)C(N)=N2)[C@]2(CC[C@H](OC)CC2)C3)c1 | Cathepsin D (CTSD, Homo sapiens, UniProt P07339) | inhibitor | – | – | – | Ki | 3800 nM |
| CC[C@@H]1[C@H](F)C(=O)N[C@@H]1COc1nccc2cc(C(N)=O)c(OC)cc12 | Inhibitor of nuclear factor kappa-B kinase subunit epsilon (IKBKE, Homo sapiens, UniProt Q14164) | ATP-site probe binding, inhibitor, ActivX ATP probe profiling | THP-1 cell lysate | probe site Lys1 | – | IC50 | 870 nM |
| COc1cccc(C(=O)CC(SCc2ccc(Cl)cc2)C(=O)O)c1 (stereo not drawn) | PLEKHA4 PH domain | PLEKHA4 PI(4,5)P2 binding, fluorescence polarization | – | together with: BODIPY-PI(4,5)P2 tracer | – | Ki | 118000 ± 33000 nM |
| COc1cc2c(c(OC)c1OC)-c1c(cc(OC)c(OC)c1OC)C[C@H](C)[C@H](C)C2 | CYP3A, rat | poziotinib metabolism to M1, inhibitor | rat liver microsomes | together with: poziotinib | – | Ki | 37500 nM |
| CCOc1ccc(C(=O)CC(SCc2cccc(Br)c2)C(=O)O)cc1 (stereo not drawn) | PLEKHA4 PH domain | PLEKHA4 PI(4,5)P2 binding, fluorescence polarization | – | together with: BODIPY-PI(4,5)P2 tracer | – | Ki | 33000 ± 5300 nM |
| O=C(O)c1cc(O)c2c(c1)C(=O)c1cccc(O)c1C2=O | HK-2 co-cultured with HepaRG | MTT | – | 133.33 µM, 24 h | baseline: untreated control | viability | 65 ± 5.72% |
| CN1CCN(c2ccc(Nc3ncc4cc(C#N)c(=O)n(C5CCCC5)c4n3)cc2)CC1 | Tyrosine-protein kinase JAK2 (JAK2, Homo sapiens, UniProt O60674, V617F) | – | – | – | – | IC50 | 3680 nM |

For quick reference, copied from above:
| Compound | target or system | assay | system | conditions | how to read | quantity | value |
| --- | --- | --- | --- | --- | --- | --- | --- |
| COc1cc2c(c(OC)c1OC)-c1c(cc3c(c1OC)OCO3)CC(C)C(C)C2 (stereo not drawn) | CYP3A, rat | poziotinib metabolism to M1, inhibitor | rat liver microsomes | together with: poziotinib | – | Ki | 2610 nM |
